# Assay results of several laboratories.
# Numbered parts are unrelated; each lists some results of a single study. Positions count from the first letter of the parent shown.

# Series 1
# Target: CCNB3, cyclin fold, Cln2 fusion (human)
# Method: yeast growth competition, sequencing
# Sample: yeast
# Notes: weak parent motif
# Baseline: not given
# Direction: higher = stronger binding
# Starting sequence: WEE1 docking peptide (human); HKTFRKLRLFDTP; partner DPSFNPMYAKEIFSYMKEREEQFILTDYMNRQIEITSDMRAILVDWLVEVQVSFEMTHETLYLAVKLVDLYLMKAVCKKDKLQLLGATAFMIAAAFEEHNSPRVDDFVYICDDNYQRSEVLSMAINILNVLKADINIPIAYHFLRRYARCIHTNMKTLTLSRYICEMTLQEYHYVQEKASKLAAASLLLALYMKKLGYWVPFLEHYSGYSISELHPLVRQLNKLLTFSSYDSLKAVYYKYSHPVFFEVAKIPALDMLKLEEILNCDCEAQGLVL
Substitution,normalised enrichment score
L7F,0.0688
F4T,0.387
D11T,-0.0686
T12Q,0.107
L7V,-0.0799
L9R,-0.183
L7D,-0.325
P13Y,0.00493
K2P,0.18
L7A,-0.246

# Series 2
# Target: ABI1, truncated, D143A, DHFR fusion (Arabidopsis thaliana)
# Method: DHFR PCA, deep sequencing
# Sample: yeast
# Notes: methotrexate growth selection, single substitutions
# Added: (+)-ABA 200 µM
# Baseline: wild-type fitted maximum
# Direction: higher = stronger binding
# Starting sequence: PYL1, truncated, DHFR fusion (Arabidopsis thaliana); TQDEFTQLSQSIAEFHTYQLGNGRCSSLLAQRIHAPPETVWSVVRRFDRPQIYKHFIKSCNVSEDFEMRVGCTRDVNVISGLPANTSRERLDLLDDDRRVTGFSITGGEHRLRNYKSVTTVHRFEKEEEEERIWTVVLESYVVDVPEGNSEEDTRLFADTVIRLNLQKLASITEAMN; partner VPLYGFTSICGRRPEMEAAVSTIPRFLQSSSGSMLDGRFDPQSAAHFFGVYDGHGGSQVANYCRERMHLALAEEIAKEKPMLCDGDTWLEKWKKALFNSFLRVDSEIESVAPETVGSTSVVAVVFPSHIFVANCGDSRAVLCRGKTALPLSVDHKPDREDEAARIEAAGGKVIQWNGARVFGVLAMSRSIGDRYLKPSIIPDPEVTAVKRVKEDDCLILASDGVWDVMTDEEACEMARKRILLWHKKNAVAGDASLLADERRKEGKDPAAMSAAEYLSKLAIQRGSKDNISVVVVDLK
Substitution,relative binding score
M68W,84.4%
R99P,11.7%
V100G,26.7%
N77Q,110%
Q167L,96.7%
N22Q,95.9%
I57S,12%
R163V,49.8%
R49E,100%
E14C,80.7%
G102C,63.2%
I172Q,70.5%

# Series 3
# Target: Phosphate system positive regulatory protein PHO4, full length, GST-tagged (PHO4, Saccharomyces cerevisiae, UniProt P07270, residues 1-312)
# Method: competition protein-binding microarray
# Form: double-stranded DNA, one strand shown
# Sample: in vitro
# Concentration: 2 µM
# Notes: whole 60-bp probe, lowest competitor level
# Added: Cbf1 competitor, 0.05 µM
# Direction: higher = stronger binding
# All sequences stand within: … GTCTTGATTCGCTTGACGCTGCTG
# Residues (chain): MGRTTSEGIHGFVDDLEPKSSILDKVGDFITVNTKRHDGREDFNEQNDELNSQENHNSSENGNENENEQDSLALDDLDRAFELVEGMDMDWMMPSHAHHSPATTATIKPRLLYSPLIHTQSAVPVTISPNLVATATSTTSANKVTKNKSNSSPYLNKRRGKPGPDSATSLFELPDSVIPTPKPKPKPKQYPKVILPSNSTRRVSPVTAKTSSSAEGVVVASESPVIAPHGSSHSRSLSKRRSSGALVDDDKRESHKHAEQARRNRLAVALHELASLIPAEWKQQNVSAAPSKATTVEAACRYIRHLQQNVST
Strand,fluorescence intensity
AATGTCAGTATTTATAGCGTGATGGTTCATTACCCG,5170 a.u.
TATCGGTGGGCATTGTACCTGATCTTGCTAGACAAA,3010 a.u.
CTTCTGTAAATTTTTCACGTGTATTGACGCGCCCCG,12100 a.u.
TTCCAAATCTTTCCGAAAAAAATTCTCTAGCGGATT,2150 a.u.
CTTGTGTTGCTTGGAAGTGTGATGGATACCCATTGT,5420 a.u.
TTTTCCGCCGCAATTTTCGTGACGGATGTCGTTCAG,3520 a.u.
ATCCGCGCCCTTTGGCGTGTTCACCACAGAGTCGCG,4710 a.u.
TCAGGCATCGTCTCTCACGTGAAATCTGTGGGGGCA,9230 a.u.
TAGGCAGAGTGCTGGCACGATGATAGCGAGGGGTTG,8410 a.u.
AGAAATGTCCCGGAAAACGTGGGTATGCGGTGAGGA,15000 a.u.
CTTGAGCGAAGCCGTCACATGGACCGGGAAATGGGT,9530 a.u.
GAATGGTAACCCTGTCACCTGTCTTTGGGAAGGTGG,4450 a.u.
ATATCCACAGTATATGGCGTGCAAAGATAAGGCTCG,6430 a.u.
CAGATGGACACTTGTTACGTGTGGATCAGACTATTG,5020 a.u.
GTCTTGTCTCATTCCCACGTGTTTTTCCCCACTTCA,18800 a.u.

# Series 4
# Target: Histone acetyltransferase KAT6A, winged helix 2, GST fusion (KAT6A, Homo sapiens, UniProt Q92794, residues 85-181)
# Method: protein binding microarray
# Form: double-stranded DNA, one strand shown
# Sample: in vitro
# Concentration: not given
# Notes: 8-mer, flanks averaged, mean of 2 arrays, mostly near background
# Baseline: not given
# Direction: higher = stronger binding
# Construct (chain): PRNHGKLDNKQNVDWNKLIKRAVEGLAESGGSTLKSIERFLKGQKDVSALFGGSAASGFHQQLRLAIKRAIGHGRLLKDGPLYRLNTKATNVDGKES
Strand,E-score
TGAAATAA,-0.0547
CGGCTCGA,0.214
ATGCACGG,0.0907
CAATGGGA,-0.0482
ATTGACAG,0.0181
ATCAGCGA,0.0818
CCTAACCG,-0.131
GGACTTGA,-0.124
GACGAACA,0.0245
GGGTCGAA,0.133
GACGAAGA,0.0846
AGTGAACG,-0.0296
ACCGTGCG,0.229
ATGGTAAT,-0.131
CCAGTAGG,-0.0891
GTAGCTTA,0.0328

# Series 5
# Target: RNA binding protein fox-1 homolog 2, RRM domain, GST-SBP tag (RBFOX2, Homo sapiens, UniProt O43251-10, residues 100-194)
# Method: RNA Bind-n-Seq
# Form: RNA
# Sample: in vitro
# Concentration: 365 nM
# Notes: natural RNA segment, single round, ends assumed
# Baseline: no-protein control
# Direction: higher = stronger binding
# All sequences stand within: GGGAGUUCUACAGUCCGACGAUC … UGGAAUUCUCGGGUGCCAA
# Construct (chain): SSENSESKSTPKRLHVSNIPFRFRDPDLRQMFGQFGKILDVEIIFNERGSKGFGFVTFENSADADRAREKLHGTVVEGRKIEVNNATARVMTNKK
Strand,RBNS enrichment (R)
AGGCCUUACCUGUGGUGUGACAGAUUGAAUUGAUUGUUUACACUGGGGACUGUAUCUCGGAUCUUUAAAUAGAGGAAUCACAAACAGACUUAAGGACAGAUGCUGAGAUU,0.914
CUCCCUCAUUUUCUCUCAUCAUGUAGGAAAGAGUGGGACCCCCUCCCAACCCCUUUCUGUUAAAGCCUCCUAAGUGGUCAUUACUACUUUGUAGACAUUGGUAUUUGUUU,0.681
ACUCGGCCGUCCCCCCUACCUCUGAGCUCUCAAUGCUGCUAAUCUCUGCCAAGUGUCCCUGUGCUCCAGCACCUUCCUUGAAGGACUGACGCCCACCCCACGCUCUUUGC,0.423
CCAGGGUCCCAGCUGGCUGGGUCCUCUUCUGCCCCCAGUGCCCUUCCCCUUGGGCUGUGUUGGAGUGAGCACCUCCUCUGUAGGCACCUCUCACACUGUUGUCUGUUACU,0.963
CGUGGUCCUUAGGCUUACAAUGUGCACUGAAUCGUUUCAUGUAAGAAUCCAAAGUGGACACCAUUAACAGGUCUUUGAAAUAUGCAUGUACUUUAUAUUUUCUAUAUUUG,20.5
GCUUGACAAUUCGAAAAUGAACCAAUGAUGUGCUGUGGAAUGUGAUGGUUGUCUUCAUAUAGAGUCACAUGGUUUCUCUUUUUAUGCAGAUAUUUAUAAUCUUCAUCCUA,0.577
GCCUCGCUGGUCUUUCACGUCCUCCUGAUUGACGUGCACAACCCGAAGGACGCUGUCCAGCUAGAGACGCUGGAGCUCCCCCCCGGCUGUGUCCGCAGAGCCGGGGCCGG,0.179
UUGUGAUCCAAUAACACUUUGUAUUAAAUUGUUUAGCAGCCAUUUGUGUUGUGAAGGGGUAGAAGAUCUCUGAAACUUGUCUUGAGAUUGAACUCAUUCCCUGUUCCACA,0.35
CCAGAAGGCAGCUGGAGCAGGGCCUGGGAGCCACAGCAGGGGUAGCUUGAGUUCUGUGCUCAGCCUCUGCAGGGGAUGUCAAACUCAGUAUGGGGUUUGUGCUAUGUGGA,1.19
CACAACUUGCACACCCCCUGUUCCCUCACUGUGUGCCCAACCUCUUCCUUUUUCCUGGGAUUCUUUAUCCUAAACCCUGCAUAUCUGAGAACCGCCUUUCUCAUAUUUCC,3.74
CCAAAUGGUGGGGACCCUGAGCCCAGCUCUGACCAGGUAGAGCCUGUGCAGCCUGGGCUGCUGUCAUUGCCCUCCAGUAAGGGCUCAGGGUUUUGCUUUUAGUCUCCCCU,0.375
AAUGACGUUUCUGAGAACCAUGUUCUUUUUAUACUAAAAUCUGGGGAUGGGAGGGCUCAUUUGUUGAUAAAUAGCACUAUUUUCCCACACCUCAGCCUCCUGUCCCCGUC,0.464

# Series 6
# Target: RING finger protein unkempt homolog, zinc fingers 1-6, GST-SBP tag (UNK, Homo sapiens, UniProt Q9C0B0, residues 30-357)
# Sequence of UniProt Q9C0B0 (30-357, looked up): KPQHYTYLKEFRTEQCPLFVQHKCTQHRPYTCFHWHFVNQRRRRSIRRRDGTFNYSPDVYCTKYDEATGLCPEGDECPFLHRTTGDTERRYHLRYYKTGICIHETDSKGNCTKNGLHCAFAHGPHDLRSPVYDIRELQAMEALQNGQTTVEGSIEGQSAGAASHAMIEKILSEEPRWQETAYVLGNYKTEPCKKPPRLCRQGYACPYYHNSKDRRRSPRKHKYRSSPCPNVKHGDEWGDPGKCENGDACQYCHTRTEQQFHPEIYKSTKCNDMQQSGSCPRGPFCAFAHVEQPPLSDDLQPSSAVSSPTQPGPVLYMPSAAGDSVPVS
# Method: RNA Bind-n-Seq
# Form: RNA
# Sample: in vitro
# Concentration: not given
# Notes: RNA with constant flanks, human-mouse chimeric sites, ends assumed
# Baseline: input RNA pool
# Direction: higher = stronger binding
Strand,bound/input enrichment [ratio]
GGGAGUUCUACAGUCCGACGAUCCUGGCACUCUAUCAGAUAGAUUACUUUUUUAAUGUAGAUGUAAUUUUAAAAAUGAAUGGCUACUUUACACGUUUAACUAGGGUUUUACUAUAUAUGUGUGUGUAUAUAUAUAUAUAUAUACAACAGAGGAUUGAGCAUCA,31.4
GGGAGUUCUACAGUCCGACGAUCUGUAGUUUCUUGAUUUAUCAUUUUUCUCUUUUCUUUCUUUCCUUUAGGAAAAGCCUAAAGAUUAGGUUGUAAGAAAAACAGAAGCCAGCCAUGUUUCACCUGUGUUACAGGUAUUUCGUCCAACAGAGGAUUGAGCAUCA,0.255
GGGAGUUCUACAGUCCGACGAUCGACUUGGGACCGUCCUGGGCUAGUACAAAUAGCGGCAGUGGAGGCUCGAGAGGAAAGUUUGUUAGUGAGGCAGUGGUUAGAGGCCGUCAUGUACGGUCCUUUACUCGAUAGAUGUGUUCUCAACAGAGGAUUGAGCAUCA,0.825
GGGAGUUCUACAGUCCGACGAUCAAAUCAUGUGUGUCCAAUAUUGAAAGUGCUUUAUCUACACUCCAGUAUGUAAGCAGUAUAGUAGUUUCUUUAGAGAAUAGGUCAGCCAUUGUAAAGUACAAUGCAAGCUCAGUCACUCCACAACAGAGGAUUGAGCAUCA,28.9

# Series 7
# Target: Sal-like protein 4, full length isoform A (SALL4, Homo sapiens, UniProt Q9UJQ4, residues 1-1053)
# Sequence of UniProt Q9UJQ4 (whole entry, looked up): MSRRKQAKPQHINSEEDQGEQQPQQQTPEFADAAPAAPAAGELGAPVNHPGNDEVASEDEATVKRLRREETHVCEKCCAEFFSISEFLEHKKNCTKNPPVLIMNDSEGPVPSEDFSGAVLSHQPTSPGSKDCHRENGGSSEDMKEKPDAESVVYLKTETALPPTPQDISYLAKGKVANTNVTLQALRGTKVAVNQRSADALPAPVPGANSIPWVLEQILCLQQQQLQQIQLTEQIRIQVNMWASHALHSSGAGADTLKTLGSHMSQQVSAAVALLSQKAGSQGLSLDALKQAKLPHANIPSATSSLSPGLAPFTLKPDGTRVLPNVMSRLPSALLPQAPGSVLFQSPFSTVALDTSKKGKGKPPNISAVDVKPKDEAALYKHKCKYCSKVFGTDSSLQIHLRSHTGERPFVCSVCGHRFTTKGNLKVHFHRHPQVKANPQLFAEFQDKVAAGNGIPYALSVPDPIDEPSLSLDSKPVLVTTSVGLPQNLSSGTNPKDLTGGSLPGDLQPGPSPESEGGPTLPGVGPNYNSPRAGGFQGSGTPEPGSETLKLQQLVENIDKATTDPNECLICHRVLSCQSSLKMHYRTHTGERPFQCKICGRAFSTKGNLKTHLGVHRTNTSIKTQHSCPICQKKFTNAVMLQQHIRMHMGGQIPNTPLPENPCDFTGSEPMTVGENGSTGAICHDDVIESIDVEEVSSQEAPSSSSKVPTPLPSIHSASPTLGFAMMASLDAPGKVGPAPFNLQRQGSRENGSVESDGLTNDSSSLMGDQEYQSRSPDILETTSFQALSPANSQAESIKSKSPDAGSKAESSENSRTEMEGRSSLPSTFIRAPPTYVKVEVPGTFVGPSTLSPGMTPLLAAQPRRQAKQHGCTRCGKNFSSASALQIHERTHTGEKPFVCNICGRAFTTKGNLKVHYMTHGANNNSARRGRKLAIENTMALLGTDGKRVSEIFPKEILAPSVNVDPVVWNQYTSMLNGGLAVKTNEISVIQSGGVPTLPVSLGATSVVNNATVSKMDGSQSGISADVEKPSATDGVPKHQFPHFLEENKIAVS
# Method: universal PBM
# Form: double-stranded DNA, one strand shown
# Sample: in vitro
# Concentration: 600 nM
# Notes: 8-mer, flanks averaged, mean of replicates
# Direction: higher = stronger binding
Strand,E-score
GGGATGGA,-0.22
CGTCCGGC,-0.28
GACTACCA,0.0322
TCGCTCCA,-0.00691
GGCAGGCA,-0.212
GGATGAAC,-0.0415
ACAGTCGT,0.0177
CGTCAGGC,-0.205
CGGTATCC,-0.137
CGTTCTTC,0.0308
GGTTAGTA,0.058
GCAGGCTA,-0.282
AAGCTCAG,-0.0741
CACTGAGC,-0.177
ACCAAATC,-0.0818
ACATCGGA,-0.00862
ATTTACCC,0.087
CTTCGCCA,-0.161
CAGCCTCC,-0.338
TCGAAAGA,0.153
AGTCGAAT,0.00507
TCGTCCAA,0.0843
TCGGTGCA,-0.193
ATTGATGA,0.267
AAAACAGG,0.0582

# Single results of other studies
# Method: cross-linking MS
Molecule,partner,sample,notes,added,endpoint,value
"SURF6 (Homo sapiens, UniProt O75683)","DDX54 (Homo sapiens, UniProt Q8TDD1)",,hits only,,interaction screen,cross-linked
"VPS13C (Homo sapiens, UniProt Q709C8)","FTSJ3 (Homo sapiens, UniProt Q8IY81)",cell fractions,,DSSO,cross-linked residues,T1227 to S677

# Repeated from above (series 2):
Substitution,relative binding score
R99P,11.7%
V100G,26.7%
N77Q,110%
Q167L,96.7%
N22Q,95.9%
I57S,12%
